{"data": "Results from different studies", "note": "Numbered parts are unrelated; each lists some results of a single study. Positions count from the first letter of the parent shown."}
{"data": "Set 1", "target": "Ras GTPase-activating protein-binding protein 1, full length (G3BP1, Homo sapiens, UniProt Q13283)", "technique": "RNA Bind-n-Seq", "molecule type": "RNA", "sample": "in vitro", "concentration": "200 nM", "setting": "whole 134-nt RNA, ends assumed", "with": "150 mM KCl", "reference": "input library", "reading": "higher = stronger binding", "sequence of UniProt Q13283 (whole entry, looked up)": "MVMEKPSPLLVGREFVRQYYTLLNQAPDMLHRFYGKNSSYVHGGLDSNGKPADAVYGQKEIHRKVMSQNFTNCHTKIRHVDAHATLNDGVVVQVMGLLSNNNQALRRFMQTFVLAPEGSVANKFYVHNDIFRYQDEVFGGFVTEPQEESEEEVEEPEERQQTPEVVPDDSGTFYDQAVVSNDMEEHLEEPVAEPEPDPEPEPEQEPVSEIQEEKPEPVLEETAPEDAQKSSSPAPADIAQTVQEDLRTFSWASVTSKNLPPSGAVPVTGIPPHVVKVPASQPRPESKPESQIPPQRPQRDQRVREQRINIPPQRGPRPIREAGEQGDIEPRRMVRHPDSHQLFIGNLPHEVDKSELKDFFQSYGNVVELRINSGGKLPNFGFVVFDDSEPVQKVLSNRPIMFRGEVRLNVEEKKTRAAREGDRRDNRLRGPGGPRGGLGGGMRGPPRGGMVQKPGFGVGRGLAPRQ"}
{"Sequence": "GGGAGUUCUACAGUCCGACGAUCUCCUGUGCUACACAUCGUAUGUACCGAAUCGGGAAAAAAGGAAAAAAGGGGAAAAAAGGGAAAGUAUUAUGUUACGCCGUUCGGAUCUGCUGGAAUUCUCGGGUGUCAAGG", "log2 enrichment": -0.426}
{"Sequence": "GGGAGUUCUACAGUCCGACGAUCACCAUGCAGGUGGGCAUCUUUGGGAAGUGGGGCAAGAGGGGGAUAGGGAGGGGGGUAACACUUUGGGAACAGGUGGUCCCAGGUCGUUUCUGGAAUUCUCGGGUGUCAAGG", "log2 enrichment": 1.14}
{"Sequence": "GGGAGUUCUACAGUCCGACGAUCUCAAGUCCUGUGCUACACAUCGUAUGUACCGAAUCGGGUUUGGGGUUUGGUUUGGAAAGUAUUAUGUUACGCCGUUCGGAUCUGCACUUCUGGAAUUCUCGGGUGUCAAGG", "log2 enrichment": -0.353}
{"Sequence": "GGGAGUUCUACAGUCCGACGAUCUGGCCCUGGUGGCAUGCGGGGAGGAAGAGGUGGCCUCAUGGAUCGUGGUGGUCCCGGUGGAAUGUUCAGAGGUGGCCGUGCUGGAGACAGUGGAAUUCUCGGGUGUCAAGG", "log2 enrichment": -0.0521}
{"Sequence": "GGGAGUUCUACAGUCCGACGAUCCUGUGCUACACAUCGUAUGUACCGAAUCGGGGAAAAAGGGGUUUUUUUGGGGUUUUUGGGGAAAGUAUUAUGUUACGCCGUUCGGAUCUGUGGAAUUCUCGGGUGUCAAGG", "log2 enrichment": -0.147}
{"Sequence": "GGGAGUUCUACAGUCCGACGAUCCCUCAAGUCCUGUGCUACACAUCGUAUGUACCGAAUCGGAAGGGGAAGGAAGGAAAGUAUUAUGUUACGCCGUUCGGAUCUGCACUUCCAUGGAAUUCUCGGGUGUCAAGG", "log2 enrichment": -0.506}
{"Sequence": "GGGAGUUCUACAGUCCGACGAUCUUCCUCAAGUCCUGUGCUACACAUCGUAUGUACCGAAUCGGUGGUGGUGGAAAGUAUUAUGUUACGCCGUUCGGAUCUGCACUUCCAGCAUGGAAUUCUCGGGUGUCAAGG", "log2 enrichment": -0.514}
{"Sequence": "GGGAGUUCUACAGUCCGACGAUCACCAUGCAGGUGGGCAUCUUUGGGAAGUGGGGCAAGUGGGGGAUAGGGAGGGGGGUAACACUUUGGGAACAGGUGGUCCCAGGUCGUUUCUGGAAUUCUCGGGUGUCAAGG", "log2 enrichment": 1.07}
{"Sequence": "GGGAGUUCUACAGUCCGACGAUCAAGUCCUGUGCUACACAUCGUAUGUACCGAAUCGGAAAAAGGAAAAAAAGGAAAGGAAAGUAUUAUGUUACGCCGUUCGGAUCUGCACUUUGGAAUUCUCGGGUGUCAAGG", "log2 enrichment": -1.33}
{"Sequence": "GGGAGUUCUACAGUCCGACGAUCACCAUGCAGGUGGGCAUCUUUGGGAAGUGGGGCAAGGGGGGGAUAGGGAGGGGGAAAACACUUUGGGAACAGGUGGUCCCAGGUCGUUUCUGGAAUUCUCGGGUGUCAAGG", "log2 enrichment": 1.12}
{"Sequence": "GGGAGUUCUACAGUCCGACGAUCUGGCCCUGGUGGCAUGCGGGGAGGAAGAGGUGGCGUCAUGGAUCGUGGUGGUCCCGGUGGAAUGUUCAGAGGUGGCCGUGGUGGAGACAGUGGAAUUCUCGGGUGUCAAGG", "log2 enrichment": 0.715}
{"Sequence": "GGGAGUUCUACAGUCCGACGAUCUCCUGUGCUACACAUCGUAUGUACCGAAUCGGGGCCCCCCGGCCCCCCGGGCCCCCCGGAAAGUAUUAUGUUACGCCGUUCGGAUCUGCAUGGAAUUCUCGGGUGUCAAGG", "log2 enrichment": -0.00802}
{"Sequence": "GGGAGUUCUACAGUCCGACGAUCGUCCUGUGCUACACAUCGUAUGUACCGAAUCGGGAAAAAAGGAAAAAAGGGAAAAAAGGAAAGUAUUAUGUUACGCCGUUCGGAUCUGCAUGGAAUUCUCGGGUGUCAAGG", "log2 enrichment": -0.674}
{"data": "Set 2", "target": "XBP1, bZIP domain (human)", "technique": "DHFR protein complementation", "sample": "yeast", "setting": "single substitutions, most at no-binding floor", "reference": "wild-type JUN-FOS pair", "reading": "higher = stronger binding", "starting sequence": "JUN, bZIP domain (human); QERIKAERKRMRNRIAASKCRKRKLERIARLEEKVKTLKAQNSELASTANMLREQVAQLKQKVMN; partner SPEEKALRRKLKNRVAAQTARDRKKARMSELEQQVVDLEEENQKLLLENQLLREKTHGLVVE"}
{"Change": "V56Q", "binding fitness [natural log]": -1.24}
{"Change": "A49L", "binding fitness [natural log]": -1.06}
{"Change": "V56E", "binding fitness [natural log]": -0.92}
{"Change": "Q55P", "binding fitness [natural log]": -1.35}
{"Change": "I28W", "binding fitness [natural log]": -1.22}
{"Change": "L59P", "binding fitness [natural log]": -0.832}
{"Change": "A40Y", "binding fitness [natural log]": -1.29}
{"Change": "V56H", "binding fitness [natural log]": -1.02}
{"Change": "E44K", "binding fitness [natural log]": -1.24}
{"Change": "S47A", "binding fitness [natural log]": -0.334}
{"Change": "Q41T", "binding fitness [natural log]": -1.17}
{"Change": "S47Y", "binding fitness [natural log]": -0.9}
{"Change": "E44P", "binding fitness [natural log]": -1.55}
{"data": "Set 3", "target": "RNA binding protein fox-1 homolog 2, RRM domain, GST-SBP tag (RBFOX2, Homo sapiens, UniProt O43251-10, residues 100-194)", "technique": "RNA Bind-n-Seq", "molecule type": "RNA", "sample": "in vitro", "concentration": "365 nM", "setting": "natural RNA segment, single round, ends assumed", "reference": "no-protein control", "reading": "higher = stronger binding", "Residues (chain)": "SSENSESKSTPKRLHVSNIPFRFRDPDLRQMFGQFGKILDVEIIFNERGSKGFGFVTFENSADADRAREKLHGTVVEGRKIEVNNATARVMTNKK"}
{"Sequence": "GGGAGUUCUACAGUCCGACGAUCGUUUUAAAAAACCGAGUUGGUUUUAUUGAAUUUAAAAAGAUAGGUAACUAAGUAGCAUUUAAAAUCAAGAUAGAGCAUUCCUUCUUGUAUCAGUGGGGCAGUGUUACCAUUGGAAUUCUCGGGUGCCAA", "RBNS enrichment (R)": 0.4}
{"Sequence": "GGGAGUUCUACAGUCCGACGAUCUACCCUUUUUGGCCUGAAGACAUUUUAGAAUUUCCUAACAGAGUUUACUGUUGUUUAGAAAUUUGCAAGGGCUUCUUUUCCGCAAAUGCCACCAGCAGAUUAUAAUUUUGUGGAAUUCUCGGGUGCCAA", "RBNS enrichment (R)": 0.506}
{"Sequence": "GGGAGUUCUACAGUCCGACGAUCGCUGCUGGCACAGCAGUUCUGGCCCUGGACUCUGCCCCGGGGGAUGUGGCCGGCACUGGGCAGCCCCUUGGACUGAGGCAGUUUUGGUGGAUGGGGGACCUCCACUGGUGUGGAAUUCUCGGGUGCCAA", "RBNS enrichment (R)": 0.472}
{"Sequence": "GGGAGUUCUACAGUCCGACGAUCUGCAUCGGAGGCCAGGACCCGGAUCAUUCACUGUGAUACCCUGCCCUCCAGAGGGUGCGCUCAGAGACACGGGCAAGCAUGCCUCUUCCCUUCCCUGGAGAGAAAGUGUGUGGAAUUCUCGGGUGCCAA", "RBNS enrichment (R)": 0.732}
{"Sequence": "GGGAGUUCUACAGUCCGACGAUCUUUUCUGGGAUAUGUCAUUGGCAAGAGGAAGAACUGGUGUUUUGAAAGCAGUAUGGAUUCUUUAAAUGCCUCUCACUCUUACAAGAUAGUAGGCUUUGAGAUAAUAAACUUGGAAUUCUCGGGUGCCAA", "RBNS enrichment (R)": 0.48}
{"Sequence": "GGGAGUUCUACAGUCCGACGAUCGCUCAUCUUGCAAAGCGCUAUUUCAGGCACAUCAUUGGAAUACAGGAAGUAGCCCUGCACCUGCCAGUGAGCUCGCCAUUCACUGAUUGGAAGAGUGACCUGGCAUCUUGUGGAAUUCUCGGGUGCCAA", "RBNS enrichment (R)": 0.256}
{"Sequence": "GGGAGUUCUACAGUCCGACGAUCCUGUGCACUACAGUCCAGAGGAAGGUAUCCACUGUGCAGCUGAAACAGGAGGCCACAAACAACCUAACAAAACCUAGGAGACCCAGCCAAGUAAAGUCCCGAGGACUGGUUGGAAUUCUCGGGUGCCAA", "RBNS enrichment (R)": 0.443}
{"Sequence": "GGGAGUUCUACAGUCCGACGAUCCCACCUGACGCUGCAUGAGACAUUGACACCAGAAAGCCCUCUUGGGGGCACUGCUCCCUACCCCAGGGCCCUGGCCAGCCGGGAGCUUGGCUCUCCUCUGGCUAGAGUGGUGGAAUUCUCGGGUGCCAA", "RBNS enrichment (R)": 1.57}
{"Sequence": "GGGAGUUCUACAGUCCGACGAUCGUGCAUCUUUUCACGGCACUGCCGAGACGUACUCCCUGGUGUUGCCGCUCACAGGCCCUCAGCUGUCGGUGGUUCCUGCAGCUUUUGUUCCUCGCAUGUAAUCAGGGAGCUGGAAUUCUCGGGUGCCAA", "RBNS enrichment (R)": 4.94}
{"Sequence": "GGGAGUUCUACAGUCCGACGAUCCCAUUGUGUUACAGUUGCCUACAGUAUGAUUACAGUAACAUUCUGUACAGUGCUAUAGCUGAAGAGUAAUAGGCUAGGCUAUCUGUAUAGCCUAAGUGUGUAACAGGCUAUGGAAUUCUCGGGUGCCAA", "RBNS enrichment (R)": 0.314}
{"Sequence": "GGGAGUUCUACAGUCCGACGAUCUGGUUAUCUGUGAAAGUUGCACAGCGUGGCUUUUCCUAAACUGGUGUUUUUCCCCCGCAUUUGGUGGAUUUUUUAUUAUUAUUCAAAAACAUAACUGAGUUUUUUAAAAGUGGAAUUCUCGGGUGCCAA", "RBNS enrichment (R)": 0.658}
{"Sequence": "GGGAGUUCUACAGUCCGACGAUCCCUCAGUCUUCUUGUAUAAUGCCUUUCCAUGGAUUGGCAUCCUGCCUUUUGGAAAACAUCAACAGCUGUUUAGAAAUGCAGCUGUAGUCUAUGAUUUUCUCUCCAGACUCUGGAAUUCUCGGGUGCCAA", "RBNS enrichment (R)": 0.335}
{"data": "Set 4", "target": "Histone acetyltransferase KAT6A, winged helix 1, GST fusion (KAT6A, Homo sapiens, UniProt Q92794, residues 1-85)", "technique": "protein binding microarray", "molecule type": "double-stranded DNA, one strand shown", "sample": "in vitro", "concentration": "not given", "setting": "8-mer, flanks averaged, mean of 2 arrays, mostly near background", "reference": "not given", "reading": "higher = stronger binding", "Construct (chain)": "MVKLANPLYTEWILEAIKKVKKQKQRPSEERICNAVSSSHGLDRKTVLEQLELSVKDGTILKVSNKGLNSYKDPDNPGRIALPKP"}
{"Sequence": "GCAATTCA", "E-score": 0.033}
{"Sequence": "ATACGCCG", "E-score": 0.4}
{"Sequence": "CTAATGGA", "E-score": -0.0764}
{"Sequence": "AAGTACCT", "E-score": -0.0773}
{"Sequence": "GAAGTCAC", "E-score": -0.0584}
{"Sequence": "GAATTAAA", "E-score": -0.156}
{"Sequence": "ATTATTTC", "E-score": -0.071}
{"Sequence": "AAAGAGCC", "E-score": -0.000965}
{"Sequence": "GATCTGGC", "E-score": -0.0785}
{"Sequence": "GAGTGTCA", "E-score": -0.0764}
{"Sequence": "GGCAAATA", "E-score": 0.000225}
{"Sequence": "CCACAAGA", "E-score": -0.281}
{"Sequence": "AACCTGAC", "E-score": -0.112}
{"Sequence": "CTAAGGAA", "E-score": -0.0463}
{"Sequence": "GGGAGGCA", "E-score": 0.0615}
